Results from different studies.
Values joined by “and” are separate records of one study, mostly repeats; a detail may differ. Numbers after ± are the reported error.

SMILES	target or system	assay	test system	conditions	how to read	endpoint	value
CCOC(=O)C1CCCN(Cc2ccc(-c3ccccc3)cc2)C1 (stereo not shown)	Trypanosoma cruzi	reporter mRNA translation, inhibitor, measured: Renilla luciferase mRNA	cell-free extract	concentration not given, test 1	relative to: positive over negative control	translation activity	113% and 136%
N#Cc1c(N)nc2c(c1-c1ccc(CO)o1)Cc1cccc(O)c1-2	HBP-ALL	cell viability, CellTiter-Glo	–	–	no inhibition at 100 µM	IC50	> 100 µM
Cn1ncc(-c2ccc3c(=O)[nH]nc(CN)c3c2)c1-c1c(F)c(Cl)cc(OC2CC2)c1C#N	SU.86.86	cell viability, inhibitor, CellTiter-Glo	–	120 h, baseline-subtracted	–	IC50	0.06 µM
C=CC(=O)N1CCCC(n2c(=O)c3ncccc3n(Cc3ccc(Oc4ccccc4)cc3)c2=O)C1 (stereo not shown)	JeKo-1	cell growth or viability, MTT	–	72 h	–	IC50	4 µM
C=C1C(=O)OC2C1CCC(C)(O)C13C=CC(C)(C21)C1(C3)C(=O)OC2C3C(C)C(=O)CC3C(=C)CC(OC(=O)C(C)=CC)C21 (stereo not shown)	AML12	lipid accumulation, Nile Red staining	–	with: palmitate/oleate	–	IC50	8.43 ± 1.21 µM
CC(C)c1ccc(N(C)c2ccc3c(c2)OCC[C@H]3CNc2cnccc2C(=O)O)cc1	HCC1806	cell growth or viability, ATP luminescence	–	7 days	–	IC50	0.013 µM
CN1CCC(N[C@@H]2CCc3[nH]c4c(C(N)=O)ccc(-c5ccccc5Cl)c4c3C2)CC1	BGC-823	cell growth or viability	–	–	–	IC50	0.00894 µM
CNS(=O)(=O)Nc1nccc(Cc2c(C)c3ccc(Oc4ncccc4F)cc3oc2=O)c1F	NCI-H1648	cell viability	–	7 days	–	IC50	0.0185 µM
CCOc1cncc(-c2ccc(NC(=O)C3(c4ccnc(NS(=O)(=O)C5CC5)n4)CCOCC3)nc2)n1	lung cancer	cell viability, CellTiter-Glo	DMSO 0.1%	72 h, line code 623	–	IC50	10 µM
COC(=O)N1c2ccc3c(nc(Cc4ccccc4)n3[C@@H]3CCC[C@@H](C(=O)O)C3)c2CC[C@@H]1C	UACC-893	cell growth or viability, ATP luminescence	–	10 days	–	IC50	0.26 µM
CCCCCC(=O)[O][Pt]([Cl])([Cl])[O]C(=O)CCCCC.N.N	A549/DDP cisplatin-resistant	MTT	–	48 h, non-transfected	–	IC50	6.05 ± 5.09 µM
Clc1ccc2c(c1)N(CCCN1CCN(CCn3cc(CN4CCCNCCN(Cc5cn(CCN6CCN(CCCN7c8ccccc8Sc8ccc(Cl)cc87)CC6)nn5)CCCNCC4)nn3)CC1)c1ccccc1S2	SH-SY5Y, differentiated	cell viability	–	with: amyloid-beta 42 10 µM	–	IC50	2.3 µM
COc1ccc2c(c1)OC1=C(C(=O)CC(C)(C)C1)C2C1=C(O)CC(C)(C)CC1=O (stereo not shown)	3T3-L1	cell growth or viability, MTT	–	72 h	–	IC50	74 µg/mL
CC[C@H]1CC[C@H]2[C@@H]3C[C@@H](O)[C@@]4(O)C[C@H](N)CC[C@]4(C)[C@H]3CC[C@]12C	BV-2	cell count, high-content imaging	–	geometric mean	–	IC50	1.22 µM
CCOc1cc(CN2CCCC(CNC(=O)c3ccc(F)cc3)C2)ccc1OC (stereo not shown)	Trypanosoma cruzi	reporter mRNA translation, inhibitor, measured: Renilla luciferase mRNA	cell-free extract	concentration not given, test 3	relative to: positive over negative control	translation activity	108%
COc1c(C)c(OS(=O)(=O)c2ccccc2)c(C)c(OS(=O)(=O)c2ccccc2)c1C(=O)/C=C/c1ccccc1	FaDu	cell growth or viability, SRB	–	72 h	–	IC50	> 50 µM
